Published values collected from several papers.
Parts stem from different laboratories: compare values within a part only. Changes are numbered by the printed parent chain.
Chain of UniProt P49137 (whole entry, looked up): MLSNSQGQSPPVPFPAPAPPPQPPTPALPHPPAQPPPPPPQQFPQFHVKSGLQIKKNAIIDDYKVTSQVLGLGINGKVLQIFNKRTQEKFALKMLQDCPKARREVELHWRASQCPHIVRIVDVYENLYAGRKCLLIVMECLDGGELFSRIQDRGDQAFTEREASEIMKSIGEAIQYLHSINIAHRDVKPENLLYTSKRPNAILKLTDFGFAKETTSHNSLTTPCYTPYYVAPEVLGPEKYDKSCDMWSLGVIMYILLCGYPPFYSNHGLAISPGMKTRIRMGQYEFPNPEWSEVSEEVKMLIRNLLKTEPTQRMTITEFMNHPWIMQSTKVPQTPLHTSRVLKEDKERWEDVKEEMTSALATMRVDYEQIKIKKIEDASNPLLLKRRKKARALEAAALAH
Chain of UniProt Q13315 (whole entry, looked up): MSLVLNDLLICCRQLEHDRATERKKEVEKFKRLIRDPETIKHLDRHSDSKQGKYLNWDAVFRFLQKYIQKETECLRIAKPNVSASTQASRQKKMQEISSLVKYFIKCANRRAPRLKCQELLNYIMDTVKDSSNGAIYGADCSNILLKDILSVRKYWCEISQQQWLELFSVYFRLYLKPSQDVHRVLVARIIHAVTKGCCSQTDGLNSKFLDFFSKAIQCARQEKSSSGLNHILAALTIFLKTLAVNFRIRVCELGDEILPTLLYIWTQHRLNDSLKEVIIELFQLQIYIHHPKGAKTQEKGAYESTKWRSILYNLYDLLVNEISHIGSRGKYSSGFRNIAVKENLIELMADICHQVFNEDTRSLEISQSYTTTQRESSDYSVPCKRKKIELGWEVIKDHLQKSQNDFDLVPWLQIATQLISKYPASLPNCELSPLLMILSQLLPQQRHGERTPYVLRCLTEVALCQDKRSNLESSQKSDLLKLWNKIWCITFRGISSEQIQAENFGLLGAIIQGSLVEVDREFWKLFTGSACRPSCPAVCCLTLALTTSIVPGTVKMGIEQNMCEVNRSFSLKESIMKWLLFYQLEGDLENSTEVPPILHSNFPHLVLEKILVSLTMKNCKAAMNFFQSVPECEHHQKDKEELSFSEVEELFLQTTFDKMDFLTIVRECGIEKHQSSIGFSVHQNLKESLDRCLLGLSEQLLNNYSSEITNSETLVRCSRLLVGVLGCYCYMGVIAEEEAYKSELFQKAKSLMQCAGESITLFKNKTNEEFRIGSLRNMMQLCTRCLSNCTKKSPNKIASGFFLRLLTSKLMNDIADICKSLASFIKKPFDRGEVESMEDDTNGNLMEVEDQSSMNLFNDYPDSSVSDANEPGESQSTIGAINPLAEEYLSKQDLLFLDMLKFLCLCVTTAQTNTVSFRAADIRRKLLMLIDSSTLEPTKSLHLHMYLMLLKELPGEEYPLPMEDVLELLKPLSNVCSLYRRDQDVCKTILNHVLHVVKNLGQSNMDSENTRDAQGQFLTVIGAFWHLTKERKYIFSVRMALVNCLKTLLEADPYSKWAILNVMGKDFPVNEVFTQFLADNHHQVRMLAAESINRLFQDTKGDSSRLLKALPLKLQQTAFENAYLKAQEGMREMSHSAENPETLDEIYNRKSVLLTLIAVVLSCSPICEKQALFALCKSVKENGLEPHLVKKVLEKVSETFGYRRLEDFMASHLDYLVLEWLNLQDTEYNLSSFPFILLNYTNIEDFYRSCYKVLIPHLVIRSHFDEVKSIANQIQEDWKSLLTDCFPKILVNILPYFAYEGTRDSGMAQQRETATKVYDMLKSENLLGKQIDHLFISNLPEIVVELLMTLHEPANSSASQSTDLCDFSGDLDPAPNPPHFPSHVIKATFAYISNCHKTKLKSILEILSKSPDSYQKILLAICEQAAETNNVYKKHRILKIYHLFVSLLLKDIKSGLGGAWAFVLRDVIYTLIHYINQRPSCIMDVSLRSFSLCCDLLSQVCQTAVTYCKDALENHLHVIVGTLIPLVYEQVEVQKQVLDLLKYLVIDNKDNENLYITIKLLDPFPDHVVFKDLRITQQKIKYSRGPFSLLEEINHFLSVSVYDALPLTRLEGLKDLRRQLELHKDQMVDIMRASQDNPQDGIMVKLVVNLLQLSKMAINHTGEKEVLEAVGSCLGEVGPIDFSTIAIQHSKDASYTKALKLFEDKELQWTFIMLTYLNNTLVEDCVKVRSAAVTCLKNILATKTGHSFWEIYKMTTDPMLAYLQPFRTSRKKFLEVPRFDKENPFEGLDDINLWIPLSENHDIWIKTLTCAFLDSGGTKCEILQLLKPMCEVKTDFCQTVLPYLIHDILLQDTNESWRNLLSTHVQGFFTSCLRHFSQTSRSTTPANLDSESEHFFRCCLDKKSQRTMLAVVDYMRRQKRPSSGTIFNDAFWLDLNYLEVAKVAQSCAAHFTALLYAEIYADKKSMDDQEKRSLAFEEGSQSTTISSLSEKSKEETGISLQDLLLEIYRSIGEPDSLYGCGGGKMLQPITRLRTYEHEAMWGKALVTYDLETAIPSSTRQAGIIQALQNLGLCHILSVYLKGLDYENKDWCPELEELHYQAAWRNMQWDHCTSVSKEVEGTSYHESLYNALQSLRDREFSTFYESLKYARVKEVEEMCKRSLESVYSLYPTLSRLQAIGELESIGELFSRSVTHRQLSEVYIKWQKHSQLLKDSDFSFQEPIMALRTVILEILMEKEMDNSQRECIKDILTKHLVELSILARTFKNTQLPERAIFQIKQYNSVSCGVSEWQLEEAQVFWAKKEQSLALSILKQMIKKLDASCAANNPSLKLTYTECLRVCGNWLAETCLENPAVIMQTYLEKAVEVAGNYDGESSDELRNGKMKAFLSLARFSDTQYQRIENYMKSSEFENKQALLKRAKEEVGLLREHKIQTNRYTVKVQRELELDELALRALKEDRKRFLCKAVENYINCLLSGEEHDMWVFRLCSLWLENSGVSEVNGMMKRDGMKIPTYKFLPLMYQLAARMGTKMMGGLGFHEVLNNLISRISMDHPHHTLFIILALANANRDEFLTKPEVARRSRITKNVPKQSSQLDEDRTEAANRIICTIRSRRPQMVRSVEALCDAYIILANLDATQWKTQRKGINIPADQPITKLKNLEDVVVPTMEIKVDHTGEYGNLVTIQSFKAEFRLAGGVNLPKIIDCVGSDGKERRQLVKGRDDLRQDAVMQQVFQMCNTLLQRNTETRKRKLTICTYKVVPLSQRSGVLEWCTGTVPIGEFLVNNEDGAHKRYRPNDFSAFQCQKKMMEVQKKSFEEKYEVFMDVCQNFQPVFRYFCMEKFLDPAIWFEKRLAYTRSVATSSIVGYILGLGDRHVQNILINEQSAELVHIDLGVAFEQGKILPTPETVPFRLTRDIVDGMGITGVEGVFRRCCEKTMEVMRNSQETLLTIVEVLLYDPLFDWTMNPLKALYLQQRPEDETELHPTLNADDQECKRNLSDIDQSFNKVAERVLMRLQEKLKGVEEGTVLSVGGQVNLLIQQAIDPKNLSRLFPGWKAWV
Chain of UniProt P11229 (whole entry, looked up): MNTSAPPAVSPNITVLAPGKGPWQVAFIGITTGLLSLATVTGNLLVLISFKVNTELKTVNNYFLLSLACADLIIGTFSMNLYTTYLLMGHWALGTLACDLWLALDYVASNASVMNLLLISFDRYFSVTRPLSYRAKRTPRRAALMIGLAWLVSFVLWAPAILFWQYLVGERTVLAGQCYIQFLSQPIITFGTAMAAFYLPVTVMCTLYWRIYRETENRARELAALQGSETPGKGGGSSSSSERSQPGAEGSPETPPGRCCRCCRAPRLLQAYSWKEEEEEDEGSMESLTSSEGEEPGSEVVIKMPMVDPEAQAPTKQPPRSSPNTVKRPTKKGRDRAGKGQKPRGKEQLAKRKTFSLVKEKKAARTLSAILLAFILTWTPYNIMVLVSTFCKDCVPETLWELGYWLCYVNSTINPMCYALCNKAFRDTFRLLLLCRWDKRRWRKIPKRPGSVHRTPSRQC
Chain of UniProt Q13555 (whole entry, looked up): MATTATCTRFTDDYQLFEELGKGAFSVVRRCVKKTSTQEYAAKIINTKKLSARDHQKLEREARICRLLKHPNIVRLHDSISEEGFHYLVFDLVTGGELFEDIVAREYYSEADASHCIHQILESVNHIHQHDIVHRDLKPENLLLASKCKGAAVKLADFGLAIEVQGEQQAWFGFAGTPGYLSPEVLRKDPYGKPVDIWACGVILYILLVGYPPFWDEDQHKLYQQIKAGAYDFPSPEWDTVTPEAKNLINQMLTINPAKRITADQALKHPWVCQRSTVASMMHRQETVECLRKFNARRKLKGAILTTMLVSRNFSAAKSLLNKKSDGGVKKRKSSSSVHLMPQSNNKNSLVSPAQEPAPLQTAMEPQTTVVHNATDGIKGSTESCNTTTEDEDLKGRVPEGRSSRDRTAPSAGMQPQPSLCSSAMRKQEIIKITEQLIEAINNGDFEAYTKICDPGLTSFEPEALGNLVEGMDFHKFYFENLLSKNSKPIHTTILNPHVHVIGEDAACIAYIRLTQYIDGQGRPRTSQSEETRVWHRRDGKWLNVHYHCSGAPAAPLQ

Set 1 — target: vanadate, free oxyanion; technique: microfluidic competitive inhibition; sample: in vitro, cell-free expressed; tested at: not given; reading: lower = stronger binding; endpoint: oxyanion analog dissociation constant
Setting: derived from inhibition constants, unchanged parent 676 nM
Starting sequence: PafA, mature enzyme, eGFP fusion (Elizabethkingia meningoseptica, UniProt Q9KJX5); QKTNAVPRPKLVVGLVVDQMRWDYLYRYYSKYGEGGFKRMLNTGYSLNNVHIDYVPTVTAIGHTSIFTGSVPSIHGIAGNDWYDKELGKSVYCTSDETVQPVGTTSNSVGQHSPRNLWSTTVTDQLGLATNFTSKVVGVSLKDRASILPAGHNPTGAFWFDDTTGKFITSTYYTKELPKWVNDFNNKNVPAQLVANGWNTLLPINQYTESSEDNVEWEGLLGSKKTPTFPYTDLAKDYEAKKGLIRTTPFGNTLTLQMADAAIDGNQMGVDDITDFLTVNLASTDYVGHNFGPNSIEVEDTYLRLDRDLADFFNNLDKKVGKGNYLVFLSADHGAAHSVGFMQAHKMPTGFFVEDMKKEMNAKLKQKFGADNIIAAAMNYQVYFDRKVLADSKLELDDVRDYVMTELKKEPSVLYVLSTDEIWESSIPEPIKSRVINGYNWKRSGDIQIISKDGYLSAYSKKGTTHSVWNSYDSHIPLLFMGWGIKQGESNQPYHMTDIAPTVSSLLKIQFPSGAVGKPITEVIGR
A370V: 688 nM
G197V: 671 nM
G463V: 632 nM
S46G: 580 nM
S412V: 906 nM
T68G: 284 nM
A195V: 780 nM
V71G: 678 nM
E299G: 1.01 µM
L193G: 522 nM
L220G: 594 nM
K346V: 782 nM
K409G: 687 nM
G76A: 778 nM
L41G: 830 nM
K452V: 682 nM
I431G: 782 nM
T123G: 665 nM
F384V: 950 nM
V399G: 562 nM
L141G: 8.85 µM
D401G: 800 nM
K363V: 828 nM
Y231G: 646 nM
S474V: 929 nM

Set 2 — endpoint: IC50
SMILES: CNC(=O)c1ccc(-c2cnn3ccc(C(=O)N(C)c4ccc(Cl)c(C(=O)O)c4)cc23)cc1
Androgen receptor (AR, Homo sapiens, UniProt P10275); cell-free assay: > 30 µM
Cyclin-dependent kinase 2 (CDK2, Homo sapiens, UniProt P24941); enzyme activity, inhibitor: > 30 µM
Muscarinic acetylcholine receptor M1 (CHRM1, Homo sapiens, UniProt P11229); cell-free assay: > 30 µM
Myotonin-protein kinase (DMPK, Homo sapiens, UniProt Q09013); enzyme activity, inhibitor: > 30 µM
MAP kinase-activated protein kinase 5 (MAPKAPK5, Homo sapiens, UniProt Q8IW41); enzyme activity, inhibitor: > 30 µM
Calcium/calmodulin-dependent protein kinase type II subunit delta (CAMK2D, Homo sapiens, UniProt Q13557); enzyme activity, inhibitor: > 30 µM
Mitogen-activated protein kinase 14 (MAPK14, Homo sapiens, UniProt Q16539); enzyme activity, inhibitor: > 30 µM
Serine-protein kinase ATM (ATM, Homo sapiens, UniProt Q13315); enzyme activity, inhibitor: 3.78 µM
MAP kinase-activated protein kinase 2 (MAPKAPK2, Homo sapiens, UniProt P49137); enzyme activity, inhibitor: > 30 µM

Set 3 — technique: RNA Bind-n-Seq; form: RNA; sample: in vitro; tested at: not given; relative to: input RNA pool; reading: higher = stronger binding; endpoint: bound/input enrichment
Target: RING finger protein unkempt homolog, zinc fingers 1-6, GST-SBP tag (UNK, Homo sapiens, UniProt Q9C0B0, residues 30-357)
Chain of UniProt Q9C0B0 (30-357, looked up): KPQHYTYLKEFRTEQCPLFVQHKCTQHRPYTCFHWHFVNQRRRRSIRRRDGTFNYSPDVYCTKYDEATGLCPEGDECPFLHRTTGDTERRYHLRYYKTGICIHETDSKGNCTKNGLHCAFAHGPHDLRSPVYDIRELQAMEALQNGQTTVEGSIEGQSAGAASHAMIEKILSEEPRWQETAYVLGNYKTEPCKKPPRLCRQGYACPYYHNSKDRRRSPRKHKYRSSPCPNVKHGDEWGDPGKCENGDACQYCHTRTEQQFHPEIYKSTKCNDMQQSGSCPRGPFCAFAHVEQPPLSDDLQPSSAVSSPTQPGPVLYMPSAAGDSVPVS
Setting: RNA with constant flanks, human and mouse sites, ends assumed
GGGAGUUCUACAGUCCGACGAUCCAUUAUUACUCCAUUACUAUUAACUAUCGGAAAAAUGAACUGGAACAGAAGAUGUUGCUAAAUUUGCAUAAGAAGAGUUGGAUGGAAGGUUUGACACUUCAGGACUACAGUGAACAUUGUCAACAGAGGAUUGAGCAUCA: 0.256 ratio
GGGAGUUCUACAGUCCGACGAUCAGAGGCGGAACGCGGCGGAGCCCGGGCCGCCCGCGUGUCGGGCGGACGCUGCGAAAAGAUGAAUUUGCAACUGGUUUCCUGGAUUGGAUUGAUCAGUUUGAUUUGUUCUGUAUUUGGCCACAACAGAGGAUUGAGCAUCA: 0.157 ratio
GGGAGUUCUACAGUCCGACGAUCGGUGUAGAAUUGGGUUCAGUUUGGCAAAGACUUGGUGCAGAUGUGACAGCAGUUGAAUUUUUAGGUCAUGUAGGUGGAGUUGGAAUUGAUAUGGAGAUAUCUAAAAACUUUCAACGCAUCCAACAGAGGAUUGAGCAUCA: 0.86 ratio
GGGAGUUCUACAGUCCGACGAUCUUAAUCAUAGAUGGCUCCACAUUGUCACUCAUACUAAAUUCUAGUCAAGACUCUAGUUCAAACAAUUACAAAAGCAUUUUCCUACAAAUAUGUAUGAAGUGUACUGCAGUGCUCUGCUGUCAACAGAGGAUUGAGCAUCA: 1.19 ratio
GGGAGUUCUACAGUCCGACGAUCUAAACAUCUCACAUAUGAAAAUGUAGAGCGAUGGCUGAAAGAACUGAGAGAUCAUGCUGAUAGUAACAUUGUUAUCAUGCUUGUGGGCAAUAAGAGUGAUCUACGUCAUCUCAGGGCAGUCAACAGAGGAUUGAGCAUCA: 0.193 ratio
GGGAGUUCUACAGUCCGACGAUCCUAACCCUGAGGCAGUGAUGGGAAAAAUUGCCUUGAUACAAAGAGGACAGUGCAUGUUUGCAGAAAAGGCACGCAACAUUCAGAAUGCUGGCGCCAUCGGUGGCAUUGUGAUCGAUGACACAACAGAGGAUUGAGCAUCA: 0.121 ratio
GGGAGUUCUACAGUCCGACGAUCAAGAACCCCACCACCAGAGAAGUUGGCACACUUGUCCAGCUUGGAGGAGCCAGCUCGGGGGUCAAGCACAGCCCACCCUGCCCCAGGCAUCAUGUGAUGGACUUUUCUGUAUCUGCCCUCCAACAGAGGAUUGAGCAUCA: 0.142 ratio
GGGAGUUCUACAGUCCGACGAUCGAGAGUGACAUGGCUCUAAGCCAGGGUCAGUGCAUUUUUCUCAACAGGCUAUUCAGAAAAAAAUACCUAUUUUUCAAAUAUUAGUUAGCCAAUAUGACAUUAAAUAGCUGUGUCAUUAAUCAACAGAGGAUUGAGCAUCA: 14.2 ratio

Set 4 — technique: protein-binding microarray; form: double-stranded DNA, one strand shown; sample: in vitro; tested at: 2540 nM top; setting: 60-bp whole probe; together with: salmon DNA 0.4 mg/ml; relative to: random background probes; reading: higher = stronger binding; endpoint: fitted relative affinity; constant ends, left off below: GCCTAGCAC … GTCTTGATTCGCTTGACGCTGCTG
Target: Interferon regulatory factor 3, full length, phosphomimetic (IRF3, Homo sapiens, UniProt Q14653, residues 1-427, S386D/S396D/S398D/S402D/T404D/S405D)
Residues (chain): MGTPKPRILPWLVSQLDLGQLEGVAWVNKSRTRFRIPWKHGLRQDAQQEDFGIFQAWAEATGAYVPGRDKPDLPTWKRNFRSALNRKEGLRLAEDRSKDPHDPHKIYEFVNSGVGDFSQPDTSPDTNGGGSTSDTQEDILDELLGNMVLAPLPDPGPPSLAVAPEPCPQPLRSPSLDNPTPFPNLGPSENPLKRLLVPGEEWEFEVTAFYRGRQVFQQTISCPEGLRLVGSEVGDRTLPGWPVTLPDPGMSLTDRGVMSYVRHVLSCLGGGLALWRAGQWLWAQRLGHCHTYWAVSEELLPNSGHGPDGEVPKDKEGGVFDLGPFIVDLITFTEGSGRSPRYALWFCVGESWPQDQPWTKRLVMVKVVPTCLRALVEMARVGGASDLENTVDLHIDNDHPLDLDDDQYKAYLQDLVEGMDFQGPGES
ATAGATTTCAGTATCGATTAGTGCTAG: 2.72 z-score
GCCGGTTTCGGGTTTCGGGACGTGCTA: 6.07 z-score
TTAGGTTCCCTTTTCCTATAGTGCTAG: 7.8 z-score
TCCAATTGTCCTTTCACTTTGTGCTAG: 3.19 z-score
GACGATATCAGAGTGGAGACGTGCTAG: 0.208 z-score
TTAGGTTTCGGGACAGGGTTAGTGCTA: 3.89 z-score
TTAGATCTCAGACTGGACTAGTGCTAG: 0.0203 z-score
CACGATCTCAGTATCGAGACGTGCTAG: 0.854 z-score

Set 5 — read-out: cell-free assay; technique: competition with immobilised ligand; tested at: 1 µM; endpoint: remaining binding
SMILES: N#CC1(c2ccccn2)CCN(Cc2cc(C(=O)O)c(=O)n3ccccc23)CC1
Ribosomal protein S6 kinase alpha-2, C-terminal kinase domain (RPS6KA2, Homo sapiens, UniProt Q15349): 100%
Calcium/calmodulin-dependent protein kinase type 1G (CAMK1G, Homo sapiens, UniProt Q96NX5): 100%
Mitogen-activated protein kinase kinase kinase 4 (MAP3K4, Homo sapiens, UniProt Q9Y6R4): 100%
Ribosomal protein S6 kinase alpha-1, N-terminal kinase domain (RPS6KA1, Homo sapiens, UniProt Q15418): 94%
Calcium/calmodulin-dependent protein kinase type II subunit gamma (CAMK2G, Homo sapiens, UniProt Q13555): 100%
Epidermal growth factor receptor (EGFR, Homo sapiens, UniProt P00533, del747-752/P753S): 100%
Serine/threonine-protein kinase RIO3 (RIOK3, Homo sapiens, UniProt O14730): 96%
